Measured values collected from several papers.
Every numbered part comes from another study and shows a few of its results, in no order.
Sequence of UniProt P50750 (whole entry, looked up): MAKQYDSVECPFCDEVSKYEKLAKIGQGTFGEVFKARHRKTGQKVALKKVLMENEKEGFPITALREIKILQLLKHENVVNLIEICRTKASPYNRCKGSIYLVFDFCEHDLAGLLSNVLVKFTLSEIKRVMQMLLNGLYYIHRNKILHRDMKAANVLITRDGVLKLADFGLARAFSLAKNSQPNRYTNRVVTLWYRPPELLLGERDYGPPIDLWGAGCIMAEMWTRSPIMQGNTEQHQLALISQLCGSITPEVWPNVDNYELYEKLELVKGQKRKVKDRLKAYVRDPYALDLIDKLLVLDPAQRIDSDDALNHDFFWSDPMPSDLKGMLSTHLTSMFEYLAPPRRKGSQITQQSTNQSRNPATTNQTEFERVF
Sequence of UniProt Q05397 (whole entry, looked up): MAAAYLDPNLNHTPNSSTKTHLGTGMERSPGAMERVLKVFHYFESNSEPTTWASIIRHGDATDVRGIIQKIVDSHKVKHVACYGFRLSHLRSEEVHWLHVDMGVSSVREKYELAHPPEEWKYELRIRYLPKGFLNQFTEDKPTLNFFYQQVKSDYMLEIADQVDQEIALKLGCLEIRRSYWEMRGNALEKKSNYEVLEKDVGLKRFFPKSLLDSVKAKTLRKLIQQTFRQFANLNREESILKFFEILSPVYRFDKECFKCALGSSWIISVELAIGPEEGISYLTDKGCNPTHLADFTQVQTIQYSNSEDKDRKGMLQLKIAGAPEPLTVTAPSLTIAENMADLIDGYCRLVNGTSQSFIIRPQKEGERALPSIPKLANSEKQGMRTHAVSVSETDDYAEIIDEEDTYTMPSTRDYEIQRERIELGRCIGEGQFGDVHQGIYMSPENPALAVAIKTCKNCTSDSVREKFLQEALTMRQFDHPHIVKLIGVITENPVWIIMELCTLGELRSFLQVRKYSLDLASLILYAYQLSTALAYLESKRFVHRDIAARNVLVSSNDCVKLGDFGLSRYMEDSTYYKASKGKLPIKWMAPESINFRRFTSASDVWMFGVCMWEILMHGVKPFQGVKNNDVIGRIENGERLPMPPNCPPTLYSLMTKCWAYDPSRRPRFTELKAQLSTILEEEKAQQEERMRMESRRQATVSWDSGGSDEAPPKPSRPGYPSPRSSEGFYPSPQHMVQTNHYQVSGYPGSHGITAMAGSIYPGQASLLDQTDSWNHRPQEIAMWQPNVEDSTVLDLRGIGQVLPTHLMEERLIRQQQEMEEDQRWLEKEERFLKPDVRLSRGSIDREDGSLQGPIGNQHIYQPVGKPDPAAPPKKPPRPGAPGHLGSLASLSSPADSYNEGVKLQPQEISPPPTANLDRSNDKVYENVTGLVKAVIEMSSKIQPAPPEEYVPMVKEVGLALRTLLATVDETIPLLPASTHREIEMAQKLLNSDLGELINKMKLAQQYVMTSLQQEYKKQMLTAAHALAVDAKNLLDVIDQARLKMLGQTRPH
Sequence of UniProt P31152 (whole entry, looked up): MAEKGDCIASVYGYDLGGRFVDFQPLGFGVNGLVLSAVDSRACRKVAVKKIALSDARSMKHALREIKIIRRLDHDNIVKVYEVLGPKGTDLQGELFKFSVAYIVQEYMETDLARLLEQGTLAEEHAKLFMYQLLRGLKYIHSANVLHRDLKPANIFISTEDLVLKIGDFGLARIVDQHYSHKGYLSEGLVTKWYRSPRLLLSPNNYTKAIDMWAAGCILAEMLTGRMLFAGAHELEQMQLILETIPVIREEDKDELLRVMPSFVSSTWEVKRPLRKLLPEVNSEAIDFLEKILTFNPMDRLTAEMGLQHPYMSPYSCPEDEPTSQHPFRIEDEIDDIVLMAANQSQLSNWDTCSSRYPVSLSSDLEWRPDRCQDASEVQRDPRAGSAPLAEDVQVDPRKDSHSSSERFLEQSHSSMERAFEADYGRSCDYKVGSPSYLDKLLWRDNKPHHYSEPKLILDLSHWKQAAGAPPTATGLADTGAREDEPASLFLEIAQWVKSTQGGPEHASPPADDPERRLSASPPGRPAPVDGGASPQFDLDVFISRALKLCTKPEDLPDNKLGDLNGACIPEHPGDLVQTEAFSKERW
Sequence of UniProt Q06418 (whole entry, looked up): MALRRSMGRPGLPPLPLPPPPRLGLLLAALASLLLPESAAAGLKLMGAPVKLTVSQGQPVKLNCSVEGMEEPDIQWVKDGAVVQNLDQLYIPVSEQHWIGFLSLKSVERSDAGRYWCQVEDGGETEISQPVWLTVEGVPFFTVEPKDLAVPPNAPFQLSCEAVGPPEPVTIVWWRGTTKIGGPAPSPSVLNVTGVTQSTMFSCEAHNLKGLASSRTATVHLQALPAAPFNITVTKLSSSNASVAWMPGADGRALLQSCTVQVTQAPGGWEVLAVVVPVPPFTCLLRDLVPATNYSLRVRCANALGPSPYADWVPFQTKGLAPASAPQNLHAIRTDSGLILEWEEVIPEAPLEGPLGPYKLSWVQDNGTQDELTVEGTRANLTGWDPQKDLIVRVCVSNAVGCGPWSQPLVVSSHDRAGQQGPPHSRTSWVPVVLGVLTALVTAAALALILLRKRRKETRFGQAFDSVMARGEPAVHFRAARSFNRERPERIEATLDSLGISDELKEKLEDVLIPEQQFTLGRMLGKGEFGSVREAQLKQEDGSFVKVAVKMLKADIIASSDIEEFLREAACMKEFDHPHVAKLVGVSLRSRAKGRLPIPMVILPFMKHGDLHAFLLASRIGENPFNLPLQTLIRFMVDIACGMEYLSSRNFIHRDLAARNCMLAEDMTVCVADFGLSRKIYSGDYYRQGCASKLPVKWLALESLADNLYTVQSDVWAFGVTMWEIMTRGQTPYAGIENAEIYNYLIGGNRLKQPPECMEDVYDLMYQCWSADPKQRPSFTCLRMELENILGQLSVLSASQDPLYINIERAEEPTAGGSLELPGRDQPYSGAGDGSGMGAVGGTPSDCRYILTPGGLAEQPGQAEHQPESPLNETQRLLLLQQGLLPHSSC
Sequence of UniProt P52564 (whole entry, looked up): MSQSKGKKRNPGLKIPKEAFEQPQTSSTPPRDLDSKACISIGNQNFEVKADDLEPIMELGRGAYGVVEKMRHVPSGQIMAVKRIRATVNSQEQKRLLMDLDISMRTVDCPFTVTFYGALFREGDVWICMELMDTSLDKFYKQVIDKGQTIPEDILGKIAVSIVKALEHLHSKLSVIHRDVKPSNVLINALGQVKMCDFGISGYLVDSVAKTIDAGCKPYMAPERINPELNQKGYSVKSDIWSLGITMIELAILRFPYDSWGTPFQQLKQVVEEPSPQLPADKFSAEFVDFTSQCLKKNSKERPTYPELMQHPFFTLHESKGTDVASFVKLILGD
Sequence of UniProt P42679 (whole entry, looked up): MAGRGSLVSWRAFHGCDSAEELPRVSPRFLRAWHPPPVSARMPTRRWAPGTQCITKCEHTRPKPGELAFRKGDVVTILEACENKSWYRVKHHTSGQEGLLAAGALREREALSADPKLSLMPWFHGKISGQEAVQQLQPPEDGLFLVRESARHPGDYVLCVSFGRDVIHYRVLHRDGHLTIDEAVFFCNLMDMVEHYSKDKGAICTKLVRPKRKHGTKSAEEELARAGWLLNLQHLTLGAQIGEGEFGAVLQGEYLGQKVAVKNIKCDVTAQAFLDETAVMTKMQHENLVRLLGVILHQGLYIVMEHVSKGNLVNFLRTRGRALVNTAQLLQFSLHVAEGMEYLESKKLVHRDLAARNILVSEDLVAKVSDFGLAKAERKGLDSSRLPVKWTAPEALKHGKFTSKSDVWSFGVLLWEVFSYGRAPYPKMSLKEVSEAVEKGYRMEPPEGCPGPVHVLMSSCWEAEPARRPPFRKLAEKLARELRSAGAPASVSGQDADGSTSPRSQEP
Sequence of UniProt Q12851 (whole entry, looked up): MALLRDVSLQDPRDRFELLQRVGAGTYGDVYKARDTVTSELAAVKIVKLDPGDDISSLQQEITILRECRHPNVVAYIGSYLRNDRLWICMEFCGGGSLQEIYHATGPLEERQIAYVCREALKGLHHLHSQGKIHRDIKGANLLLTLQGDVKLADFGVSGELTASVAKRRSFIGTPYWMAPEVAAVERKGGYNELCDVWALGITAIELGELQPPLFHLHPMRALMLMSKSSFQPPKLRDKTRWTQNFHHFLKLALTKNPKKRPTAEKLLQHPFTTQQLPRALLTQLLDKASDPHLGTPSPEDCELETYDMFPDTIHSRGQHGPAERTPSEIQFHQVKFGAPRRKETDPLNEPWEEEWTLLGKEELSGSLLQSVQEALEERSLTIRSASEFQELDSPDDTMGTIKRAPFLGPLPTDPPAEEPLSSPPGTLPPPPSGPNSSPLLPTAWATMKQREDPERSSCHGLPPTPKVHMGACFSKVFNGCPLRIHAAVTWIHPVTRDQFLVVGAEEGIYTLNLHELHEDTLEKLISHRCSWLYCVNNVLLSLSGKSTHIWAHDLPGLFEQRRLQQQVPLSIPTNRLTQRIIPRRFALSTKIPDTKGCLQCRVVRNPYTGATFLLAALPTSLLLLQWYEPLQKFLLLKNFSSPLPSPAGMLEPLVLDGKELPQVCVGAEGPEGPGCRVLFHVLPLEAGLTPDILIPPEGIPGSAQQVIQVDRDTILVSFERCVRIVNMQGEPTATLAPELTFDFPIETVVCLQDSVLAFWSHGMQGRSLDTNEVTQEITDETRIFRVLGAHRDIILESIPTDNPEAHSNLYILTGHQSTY
Sequence of UniProt P50613 (whole entry, looked up): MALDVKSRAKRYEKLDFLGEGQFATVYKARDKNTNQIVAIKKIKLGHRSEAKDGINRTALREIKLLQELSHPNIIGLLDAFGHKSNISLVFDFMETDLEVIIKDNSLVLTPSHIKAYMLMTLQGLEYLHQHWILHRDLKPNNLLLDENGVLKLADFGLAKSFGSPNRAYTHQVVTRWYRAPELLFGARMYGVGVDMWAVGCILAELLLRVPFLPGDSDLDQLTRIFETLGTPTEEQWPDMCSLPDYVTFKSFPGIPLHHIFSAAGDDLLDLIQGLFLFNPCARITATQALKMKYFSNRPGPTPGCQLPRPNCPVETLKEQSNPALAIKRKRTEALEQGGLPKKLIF

Block 1
Compound: C=CC(=O)N1CCC([C@@H]2CCNc3c(C(N)=O)c(-c4ccc(Oc5ccccc5)cc4)nn32)CC1
Tested at: 1 µM
target	test	inhibition [%]
FGFR3 (Homo sapiens, UniProt P22607)	cell-free assay	15
MAPK4 (Homo sapiens, UniProt P31152)	enzyme activity, inhibitor	1
MAP4K2 (Homo sapiens, UniProt Q12851)	enzyme activity, inhibitor	5
MAP4K5 (Homo sapiens, UniProt Q9Y4K4)	enzyme activity, inhibitor	27
TYRO3 (Homo sapiens, UniProt Q06418)	cell-free assay	47
Ribosomal protein S6 kinase alpha-4, N-terminal kinase domain (RPS6KA4, Homo sapiens, UniProt O75676)	inhibitor	21
MELK (Homo sapiens, UniProt Q14680)	enzyme activity, inhibitor	19
Tyrosine-protein kinase ABL1, phosphorylated (ABL1, Homo sapiens, UniProt P00519, T315I)	enzyme activity, inhibitor	0
MATK (Homo sapiens, UniProt P42679)	enzyme activity, inhibitor	11
FES (Homo sapiens, UniProt P07332)	enzyme activity, inhibitor	4
MAP3K19 (Homo sapiens, UniProt Q56UN5)	enzyme activity, inhibitor	15
PTK2 (Homo sapiens, UniProt Q05397)	enzyme activity, inhibitor	11
WNK4 (Homo sapiens, UniProt Q96J92)	enzyme activity, inhibitor	38
DAPK1 (Homo sapiens, UniProt P53355)	enzyme activity, inhibitor	11
CAMK2G (Homo sapiens, UniProt Q13555)	inhibitor	0

Block 2
SMILES: COc1ccc2[nH]c3c4[nH]c5ccc(OC)cc5c4c4c(c3c2c1)C(=O)NC4=O
Tested at: 1 µM
target	test	conditions	how to read	remaining binding [%]
PAK2 (Homo sapiens, UniProt Q13177)	competitive binding panel	–	reference: vehicle	91
CASK (Homo sapiens, UniProt O14936)	competitive binding panel	–	reference: vehicle	100
CDKL5 (Homo sapiens, UniProt O76039)	competitive binding panel	–	reference: vehicle	94
STK38L (Homo sapiens, UniProt Q9Y2H1)	competitive binding panel, item: NDR2	–	reference: vehicle	72
MAP3K13 (Homo sapiens, UniProt O43283)	competitive binding	LZK	–	77
ABL1 (Homo sapiens, UniProt P00519)	competitive binding, scanMAX	nonphosphorylated, 1000 nM	–	58
SRPK2 (Homo sapiens, UniProt P78362)	competitive binding panel	–	reference: vehicle	94
SIK1 (Homo sapiens, UniProt P57059)	competitive binding	SIK	–	67
NEK10 (Homo sapiens, UniProt Q6ZWH5)	competitive binding panel	–	reference: vehicle	93
MAP2K6 (Homo sapiens, UniProt P52564)	competitive binding panel, item: MEK6	–	reference: vehicle	97
TAOK1 (Homo sapiens, UniProt Q7L7X3)	competitive binding panel	–	reference: vehicle	100
ERBB2 (Homo sapiens, UniProt P04626)	competitive binding panel	–	reference: vehicle	100
SGK1 (Homo sapiens, UniProt O00141)	competitive binding	SGK	–	6.8
STK39 (Homo sapiens, UniProt Q9UEW8)	competitive binding panel	–	reference: vehicle	100
DSTYK (Homo sapiens, UniProt Q6XUX3)	competitive binding panel, item: RIPK5	–	reference: vehicle	27
AAK1 (Homo sapiens, UniProt Q2M2I8)	competitive binding panel	–	reference: vehicle	53
DAPK3 (Homo sapiens, UniProt O43293)	competitive binding panel	–	reference: vehicle	4.8
MET (Homo sapiens, UniProt P08581)	competitive binding panel	–	reference: vehicle	78

Block 3
Structure (SMILES): COc1cc(-c2cn(C3CCc4c(F)cccc4N(CC(F)(F)F)C3=O)nn2)ccc1-n1cnc(C)c1 (stereo not drawn)
Observed: cell-free assay
Technique: competition with immobilised ligand
Tested at: 1 µM
target	remaining binding [%]
MAPK3 (Homo sapiens, UniProt P27361)	100
SYK (Homo sapiens, UniProt P43405)	100
PRPF4B (Homo sapiens, UniProt Q13523)	100
MATK (Homo sapiens, UniProt P42679)	100
IGF1R (Homo sapiens, UniProt P08069)	100
PIP5K1A (Homo sapiens, UniProt Q99755)	100
MAP4K1 (Homo sapiens, UniProt Q92918)	100
PRKACA (Homo sapiens, UniProt P17612)	100
CDK7 (Homo sapiens, UniProt P50613)	100
PTK2B (Homo sapiens, UniProt Q14289)	100
CDK11B (Homo sapiens, UniProt P21127)	95
MAP3K7 (Homo sapiens, UniProt O43318)	100
Ribosomal protein S6 kinase alpha-5, C-terminal kinase domain (RPS6KA5, Homo sapiens, UniProt O75582)	73
EPHB3 (Homo sapiens, UniProt P54753)	100
EGFR (Homo sapiens, UniProt P00533, G719C)	94
CDK9 (Homo sapiens, UniProt P50750)	97
PLK3 (Homo sapiens, UniProt Q9H4B4)	100
Tyrosine-protein kinase JAK1, JH2 (JAK1, Homo sapiens, UniProt P23458)	100
MAP3K5 (Homo sapiens, UniProt Q99683)	100
MAP4K3 (Homo sapiens, UniProt Q8IVH8)	100
MAPK4 (Homo sapiens, UniProt P31152)	89
GSK3A (Homo sapiens, UniProt P49840)	100
FLT4 (Homo sapiens, UniProt P35916)	100
PTK2 (Homo sapiens, UniProt Q05397)	100
TYRO3 (Homo sapiens, UniProt Q06418)	100

Block 4
Structure (SMILES): COc1cc2ncnc(Nc3ccc(OCc4ccccc4)cc3)c2cc1OC
Observed: enzyme activity
Action: inhibitor
Tested at: 0.5 µM
Reference: control
target	remaining activity [%]
Cyclin-dependent kinase 9, with cyclin T1 (CDK9, Homo sapiens, UniProt P50750)	94.5
CHEK1 (Homo sapiens, UniProt O14757)	101
CSNK1A1 (Homo sapiens, UniProt P48729)	105
NEK4 (Homo sapiens, UniProt P51957)	86.9
MAPK12 (Homo sapiens, UniProt P53778)	102
WNK2 (Homo sapiens, UniProt Q9Y3S1)	91.6
MKNK2 (Homo sapiens, UniProt Q9HBH9)	88.1
LRRK2 (Homo sapiens, UniProt Q5S007)	92.2
PLK2 (Homo sapiens, UniProt Q9NYY3)	109
PRKCI (Homo sapiens, UniProt P41743)	101
AKT3 (Homo sapiens, UniProt Q9Y243)	103
BTK (Homo sapiens, UniProt Q06187)	90.6
MAPK13 (Homo sapiens, UniProt O15264)	103
PRKG1 (Homo sapiens, UniProt Q13976)	99.3
CSNK2A1 (Homo sapiens, UniProt P68400)	95.8
MAP3K10 (Homo sapiens, UniProt Q02779)	94.9
MAP2K6 (Homo sapiens, UniProt P52564)	109
KIT (Homo sapiens, UniProt P10721)	63
PRKCD (Homo sapiens, UniProt Q05655)	101
IRAK4 (Homo sapiens, UniProt Q9NWZ3)	119
LYN (Homo sapiens, UniProt P07948)	91.2
MAP4K2 (Homo sapiens, UniProt Q12851)	114
EPHA5 (Homo sapiens, UniProt P54756)	105

For quick reference, copied from above (block 1):
target	test	inhibition [%]
Tyrosine-protein kinase ABL1, phosphorylated (ABL1, Homo sapiens, UniProt P00519, T315I)	enzyme activity, inhibitor	0
MATK (Homo sapiens, UniProt P42679)	enzyme activity, inhibitor	11
CAMK2G (Homo sapiens, UniProt Q13555)	inhibitor	0
MAP4K2 (Homo sapiens, UniProt Q12851)	enzyme activity, inhibitor	5
PTK2 (Homo sapiens, UniProt Q05397)	enzyme activity, inhibitor	11
MAP3K19 (Homo sapiens, UniProt Q56UN5)	enzyme activity, inhibitor	15
FES (Homo sapiens, UniProt P07332)	enzyme activity, inhibitor	4
WNK4 (Homo sapiens, UniProt Q96J92)	enzyme activity, inhibitor	38
Ribosomal protein S6 kinase alpha-4, N-terminal kinase domain (RPS6KA4, Homo sapiens, UniProt O75676)	inhibitor	21
FGFR3 (Homo sapiens, UniProt P22607)	cell-free assay	15
DAPK1 (Homo sapiens, UniProt P53355)	enzyme activity, inhibitor	11
